# Measured values from different studies.
# A part holds a random share of what one study measured. Positions count from the first letter of the parent shown.

# Sample 1
# Target: RING finger protein unkempt homolog, zinc fingers 1-6, GST-SBP tag (UNK, Homo sapiens, UniProt Q9C0B0, residues 30-357)
# Method: RNA Bind-n-Seq
# Molecule type: RNA
# Sample: in vitro
# Tested at: not given
# Notes: RNA with constant flanks, ends assumed
# Baseline: input RNA pool
# Reading: higher = stronger binding
# Constant ends, left off below: GGGAGUUCUACAGUCCGACGAUC … CAACAGAGGAUUGAGCAUCA
# Residues (chain): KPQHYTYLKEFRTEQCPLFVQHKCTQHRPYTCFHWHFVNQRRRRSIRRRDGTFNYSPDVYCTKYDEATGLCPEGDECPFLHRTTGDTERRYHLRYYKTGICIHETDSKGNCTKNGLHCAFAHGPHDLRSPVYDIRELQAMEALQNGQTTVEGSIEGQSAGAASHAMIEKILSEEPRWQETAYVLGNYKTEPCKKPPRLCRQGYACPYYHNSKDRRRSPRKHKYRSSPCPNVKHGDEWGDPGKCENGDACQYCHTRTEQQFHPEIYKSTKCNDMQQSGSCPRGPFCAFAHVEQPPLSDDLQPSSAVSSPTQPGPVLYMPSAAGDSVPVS
Oligonucleotide,bound/input enrichment
GGAAUUCAACCUGUAAUAGAUAAAUUAAGGGAACACGAAAAUUCAACAUUAGAUAGGCAUUCCGACUUUUUUGAAAUGCUCCGAAAUGAAGAUGAACUAGAAUUUGCCAAAAGAUUUGAA,1.59 ratio
UCACACCUUCUUAUAAAGUGUGAACAAGGAAGGUCAUGUUUUUGUGGGUAUUUUGUCAGACUCCGAGGUUUCAUUUCAGGGCAUAGUCAAAGGCAUCAUCCUCCCAACUACCCACUUGAU,0.275 ratio
AUGGCUUGGAUGAUAUUAAGGACCGUUCGACACUUGGAGAGAAAUUGGGAGGCAAUGCCGCCGUUUCACUUGAAGGAAAACCAUUAUAAAAUGACAGUCAAGUGCCAUCUGGAUCUUAAG,0.152 ratio
UGUGCCCUGAUGGCAGCUGAAGUUUGAUUCAGAUGGGCACUUUUCUUCCCCUUCCCUGCCCCGUUUCCUUUUGUUCCUUGAGUCCACGCAGAAUUCCAUUCUCUGGUCAGCAGACAGGCU,0.331 ratio
GAUCUCAUCGUGGCUGACAGUAGUCGCAAGGAAAUUCUCCAUUUUCCUAAGGGUGGGGGCUACCGUGUCCUUAUUCGAGAGGGACUUACCUGUCCGGUGGGCAUAGCCCUAACUCCUAAG,0.0994 ratio
CUGGCAGUGGAGGCAUGUGUGAAUAUUGCCCAGCUUCUGCCACAGGAGGACCUGGAGGCCUCCGUGAUGCCCACCUUGCGACAGGCUGCUGAGGACAAGUCUUGGCGUGUUCGCUACAUG,0.0528 ratio
GCAGCUAUUCCACAUGCCGCAGAAGAUAUUCAAGGAGAUGACAGGUGGAUGUCUCAGCAUAACCGGUUUGUUCUGGACUGUAAAGACAAAGAACCAGAUGUGCUGUUUGUGGGGGACUCC,0.174 ratio
ACUGAUUACAAAUCACCAUCAGCUGAUGACAAAGGGCAGCCAUCUGACCCCAGCCAAUCCCGUUUCACAGGUCUUUUGAAGAGAAUGGAACAAAGAGGUGUUAUAAAAAGGGUGACAUUA,0.136 ratio
AUUUCCAUGGGACUUACAAGGAGCAUGCAGAUUGUCCCUUUAGACAAGCAGAUCACAAUCACCGACAGUCCAUGCCUAAUUAUCUCACCUUGUAACUCCCCCACUGCACUUGCCCUUCGG,0.167 ratio
GACAAGUUUGAAAAACUUGUACAGACUGUGAGAGAUUAUCAUGCAACUUGGAAAACUGUCCGUAAUAAAUUAAAAAAUCAUCCUGAUUAUGAAGAAUAUAUCAACUUAGAGGGAACAAGA,1.52 ratio
UUUGGUGUUAUCCGGUCACUUAUGGCGUUUAGGCUAACAGGUGGCACCAAAGACUACAUUGCCGUUGGCAGUGACUCAGGCCGGAUUGUUAUCUUGGAAUACCAGCCAUCAAAGAAUAUG,0.801 ratio

# Sample 2
# Target: RNA binding protein fox-1 homolog 2, RRM domain, GST-SBP tag (RBFOX2, Homo sapiens, UniProt O43251-10, residues 100-194)
# Method: RNA Bind-n-Seq
# Molecule type: RNA
# Sample: in vitro
# Tested at: 365 nM
# Notes: natural RNA segment, single round, ends assumed
# Baseline: no-protein control
# Reading: higher = stronger binding
# Constant ends, left off below: GGGAGUUCUACAGUCCGACGAUC … UGGAAUUCUCGGGUGCCAA
# Residues (chain): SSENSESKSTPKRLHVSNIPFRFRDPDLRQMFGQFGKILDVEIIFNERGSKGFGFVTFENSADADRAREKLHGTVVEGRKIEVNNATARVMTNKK
Oligonucleotide,RBNS enrichment (R)
CUAGGACCAGCUCCCACGUGCCAUUUACUGCUUUCUUCACCCUCCUCAUCUGGAGUUUGAUGGUUUACAGAUGUCUGACAGUUCCUCAGCUCUUGUGCCAAGGAGGAGUG,0.481
AUGUAUUGCACUAUACUUCUAAUGGAACUAAUCAUCUCCACCAUAGUGUGUGCCUUCUAUAAAGGAGAAAGCAGCAAGGCCAUGUCCUUAGCAGGAACCUUUGCUAGCCA,1.13
CAUGGUACCAGCCCAGAGUCGGGCCGGGUCCUUGGUAUAGGACAUGAGGAAAUGUUGUGUUCAGAAAUGAAUAAAUGGAAUGCCCUCAUACAAGGGGGAGGGUGGGGUGG,0.778
UUUUUUAAAAAAUGAAAAAGAAAAAAAAGAAGAGAAAAACCCAUAAAUAAGUGCAUUGAGAAGAACAUGGAGAGGAUGCUGUCCUCUGCAACAGAGACAGGCCCGUGGCG,0.502
ACUAAAUAUAUAACAAGCUGUGUUUUCCUAAGCUGAGAUCUGUUGAAUAAUGUUUACAUUCGUCCCCCGGGGAAAUGUAUGCUCAGCCACCAUUCAAGAGAUGACUGAGA,0.362
UAGAAAAACUUUUGAAUAUUUUAGUUCAUUGUUCAGAUAUGUUAACUCAAGAUUAGUUUAAUUAAACUAACGAAUAGUUUUGGACACUUUAAAAGAGCUCUAAAUUUGCU,0.382
UUCUACAUUUUAAAAGGAAGAAAAAAAAGCAAAUAACUGAAUUAUUAUAGAAAACUUUAGACCUGUGACAUUUUUUUGUUUUAAAUUACAAAAGAGGUUGGUAUGAUAAA,0.724
GGCUAAUUUUUGUAUUUUUUGUAGAGACGGGGUUUUGCCAUGUUGCCAAGGCUGGUUUCAAACUCCUGGACUCAAGAAAUCCACCCACCUCAGCCUCCCAAAGUGCUAGG,0.426
CUGAGCCGCUGACUCUUCUGGCAAAAAUUCUGUUGGGAUUUAAGGCCAAGGGUCAGUGGGUGGCAGGGGGCUGACAAUGAGCUUGUGUGUUGUUGGUCUGCUUGGUGUGU,1.31
UUCUUCCAGAGGAUGCAUUUGGAUCCCAGAGGAGUGUUUUCUGGAAGACAAUCUUUCAACAUCCCUACAUUCCUGAUAUGAAGCAGGAAUUUGCACAUGGUGUAGAGAGC,0.452
CAAGAGUCAGGACUUCAGGACUCUGUCCUUCCUUCCCACUCAUCGCCCUUGCAGACAGCGUGUGCUUUGCGAACAGCAGCAGAAGUCACAUUUAGAACAAAAAGGAGGGG,0.369
GCAGACCCCCUAACCCUUCAGACAGGCAGUGUUUAUUUAAUGCGUAGAGUGCAGAGGGGCUCUUUUAUCCAGACCCCUCUUUGUAUCCUGGUGCCCUUGUUGACUGUCUG,0.351

# Sample 3
# Target: CCND3, cyclin fold, Cln2 fusion (human)
# Method: yeast growth competition, sequencing
# Sample: yeast
# Notes: weak parent motif
# Baseline: not given
# Reading: higher = stronger binding
# Parent: WEE1 docking peptide (human); HKTFRKLRLFDTP; partner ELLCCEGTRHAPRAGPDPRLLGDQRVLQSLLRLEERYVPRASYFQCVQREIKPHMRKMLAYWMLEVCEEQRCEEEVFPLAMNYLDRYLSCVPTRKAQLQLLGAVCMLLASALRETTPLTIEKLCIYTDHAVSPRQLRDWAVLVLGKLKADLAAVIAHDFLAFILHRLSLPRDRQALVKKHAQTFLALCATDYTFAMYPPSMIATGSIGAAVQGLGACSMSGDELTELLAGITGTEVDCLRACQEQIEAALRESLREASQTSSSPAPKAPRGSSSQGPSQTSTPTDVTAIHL
Variant,normalised enrichment score
R5N,-0.649
K2E,0.112
T12A,0.175
T12Q,0.287
K6D,0.0536
T3C,0.0502
F4V,0.107
R5A,-0.085
T3L,0.0101
H1I,0.276
D11K,0.0987

# Mixed results
Substance,target,test,test system,conditions,how to read,endpoint,value
"PhoQ, residues 284 288 289 292 302 303 SNGLAW","PhoP, residues 12 14 15 18 19 SGWQI (Escherichia coli, UniProt P23836)","Sort-seq, refers to: YFP reporter",E. coli,"PhoQ-PhoP variant library, with: 10 µM Mg2+","baseline: high Mg2+ state, higher = stronger signaling",fold induction,6.75
